Results pooled from the literature.
Each numbered part is a random draw from the data of one study; scales do not carry over between parts. Positions count from the first letter of the parent shown.

Block 1 — target: CCNA1, cyclin fold, Cln2 fusion (human); technique: yeast growth competition, sequencing; sample: yeast; notes: strong parent motif; baseline: not given; reading: higher = stronger binding
Starting sequence: RBL2 docking peptide (human); STTRRRLFVENDS
Variant	normalised enrichment score
T3Y	0.648
T3N	0.225
R4C	0.655
S1N	0.609
D12E	0.434
E10F	0.564
R5P	0.466
S13H	0.6
T3L	0.289
R5Q	0.592
R6A	0.556
E10I	0.314
N11Y	0.352
N11F	0.805
D12C	0.43
F8K	0.256
F8E	0.434
D12P	0.704
R4E	0.076
T3W	0.252
V9I	1.07
N11S	0.78
V9Q	0.37
V9C	1.01
N11W	0.489

Block 2 — technique: RNA Bind-n-Seq; form: RNA; sample: in vitro; tested at: 200 nM; notes: whole 134-nt RNA, ends assumed; with: 150 mM LiCl; baseline: input library; reading: higher = stronger binding; library: 7-deaza-guanosine replaces G
Target: Ras GTPase-activating protein-binding protein 1, full length (G3BP1, Homo sapiens, UniProt Q13283)
Sequence of UniProt Q13283 (whole entry, looked up): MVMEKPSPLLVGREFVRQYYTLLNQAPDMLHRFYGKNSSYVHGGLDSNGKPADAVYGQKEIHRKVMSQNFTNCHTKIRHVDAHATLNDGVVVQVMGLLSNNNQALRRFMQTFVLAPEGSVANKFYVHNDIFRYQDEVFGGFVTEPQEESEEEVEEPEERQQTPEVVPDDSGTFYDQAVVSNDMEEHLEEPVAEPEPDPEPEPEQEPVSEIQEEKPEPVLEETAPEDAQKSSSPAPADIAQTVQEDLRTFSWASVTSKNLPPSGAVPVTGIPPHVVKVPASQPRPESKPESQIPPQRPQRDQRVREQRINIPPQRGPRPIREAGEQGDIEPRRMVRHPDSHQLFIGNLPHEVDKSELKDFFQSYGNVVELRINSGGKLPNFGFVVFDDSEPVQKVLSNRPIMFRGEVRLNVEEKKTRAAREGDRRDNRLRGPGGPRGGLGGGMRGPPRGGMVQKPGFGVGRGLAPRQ
Constant ends, left off below: GGGAGUUCUACAGUCCGACGAUC … UGGAAUUCUCGGGUGUCAAGG
Sequence	log2 enrichment
ACCACGCAGGUGGGCAUCUUUGGGAAGUGGGGCAAGGGGGGGAUAGGGAGGGGGGUAACACUUUGGGAACAGGUGGUCCCAGGUCGUUUC	-0.0498
UUCCUCAAGUCCUGUGCUACACAUCGUAUGUACCGAAUCGGCGGCGGCGGAAAGUAUUAUGUUACGCCGUUCGGAUCUGCACUUCCAGCA	0.906
CCUCAAGUCCUGUGCUACACAUCGUAUGUACCGAAUCGGCCGGCCGGGCCGGAAAGUAUUAUGUUACGCCGUUCGGAUCUGCACUUCCAG	0.428
CCUCAAGUCCUGUGCUACACAUCGUAUGUACCGAAUCGGGCGGGCGGGGCGGGAAAGUAUUAUGUUACGCCGUUCGGAUCUGCACUUCCA	-0.16
CACAGACAACACGCACCCACACAGACACAGAGGGAAGGGGUUGGGAUGGGGACAGGGUGCACAGCAGGGCGGGGUAGGACCCCAGUCCCU	-1.36
UCCUGUGCUACACAUCGUAUGUACCGAAUCGGCCCCCCGGGGCCCCCCGGGCCCCCCGGAAAGUAUUAUGUUACGCCGUUCGGAUCUGCA	-1.77
AGUCCUGUGCUACACAUCGUAUGUACCGAAUCGGUUUUGGGUUUUGGGGUUUUGGGGAAAGUAUUAUGUUACGCCGUUCGGAUCUGCACU	-0.157
UCAAGUCCUGUGCUACACAUCGUAUGUACCGAAUCGGUUUGGUUUUUUUGGAGGAAAGUAUUAUGUUACGCCGUUCGGAUCUGCACUUCC	0.482

Block 3 — technique: protein-binding microarray; form: double-stranded DNA, one strand shown; sample: in vitro; tested at: 940 nM top; notes: 60-bp whole probe; with: salmon DNA 0.4 mg/ml; baseline: random background probes; reading: higher = stronger binding; constant ends, left off below: GCCTAGCAC … GTCTTGATTCGCTTGACGCTGCTG
Target: Interferon regulatory factor 5, full length, phosphomimetic (IRF5, Homo sapiens, UniProt Q13568-2, residues 1-514, S451D/S453D/S456D/S462D)
Sequence	fitted relative affinity [z-score]
GACGGTCTCCTTCTACTGACGTGCTAG	0.84
TTAGGTCTCGTTATCGGTTAGTGCTAG	3.37
TTCAGTTTCACTGCTGCCCTGTGCTAG	6.6
TTAGGTCTCCTTGTCCTTTAGTGCTAG	0.202
TTAGGAATCCTTTTCCTTTAGTGCTAG	-0.206
GACGGTTTCGTCTTTCGGGACGTGCTA	7.15
GACGGACTGGCTTTCGGGACGTGCTAG	0.0357
TTAGGTATCGGGAGTGGGTTAGTGCTA	4.02
GACGATATCAGATTCGAGACGTGCTAG	-0.206
CCCTTTTAAGTTCTCTGAAGGTGCTAG	1.03
GACGGTTTCGGGTTTCTGGACGTGCTA	8.34
TTAGATTTCACTATCGATTAGTGCTAG	1.45
TTAGATTTCAGGCTCGATTAGTGCTAG	0.462
TTAGGTTACGACTTTCGGTTAGTGCTA	2.76
TCAACCTTCGAGTCTGCAACTGTGCTA	-0.201
TCAAATCTCTTTCCTTAACTGTGCTAG	1.22
TTAGGTTCCCTTTTCCTTAAGTGCTAG	1.03
TTAGATATCAGTCTCGATGAGTGCTAG	2.02
TCTAATTTACTTTGGTTGGCGTGCTAG	0.2

Block 4 — technique: RNA Bind-n-Seq; form: RNA; sample: in vitro; tested at: 365 nM; baseline: no-protein control; reading: higher = stronger binding
Target: RNA binding protein fox-1 homolog 2, RRM domain, GST-SBP tag (RBFOX2, Homo sapiens, UniProt O43251-10, residues 100-194)
Notes: natural RNA segment, single round, ends assumed
Constant ends, left off below: GGGAGUUCUACAGUCCGACGAUC … UGGAAUUCUCGGGUGCCAA
Target sequence (chain): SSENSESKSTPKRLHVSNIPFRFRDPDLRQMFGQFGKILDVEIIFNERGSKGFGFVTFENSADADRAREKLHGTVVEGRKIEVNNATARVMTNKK
Sequence	RBNS enrichment (R)
UACUUCGUAUGUUAAUAGUUGUUCUGAUAAAUCAUGCAAUUAAAGUAAAGUGAUGCAACAUCUUGUAUACUGAUAGUGGUUAUUGCCAGUCAUGCUUGAUUACCUGCAUU	0.373
CAUUCUGGACCUCCCAGGAGUUGUUUAAGAAUGAAUCUCUUACACCUCUACUUUUGCCCCUCUACUGUAUAUUAAGCCCAUAGGCUUGUGGGAGGAAGGAGAAUUUCCAU	0.334
UUUCUCCCCCCCGCCUGGAUCCUGCCUCGCGCGGGCCGUCCUGUUGCUGAGACUCGGGGUACCGUUCUGCUGACCCAGCUCCCUUUAGUCACGUUUGCUUGGCUCUGGUA	0.504
UCAAGGGGCUACACUCCCCAUCAGGCAGCAUCCCACCAGCCUGCACCACAGGCUCCCCUGGGAGGACGAGGGAAACGCUGAUGAGACGCUGGGCAUCUCUCCUCUGUGGC	0.394
GGAACUCAUUUCCUCCUCUAUCCCCAGCCCUUCUCCUAACUAUGGUGAUAACCAGGGCCAUAGAAGACCUUUUCUCUCUUACCUUUCUCUGAUAGGAUCGUGUCCUUCAG	0.297
GCCUCUGGGAACCGGGCUGGUGCCCUGCCUUUCCUGAGCAGGGCUCCUCCUCCAGAAGCGGUGGUCCAGGGGGUGGGGCUCUUAGUCCCUCUGGCCUUCCCCAUAUUACA	0.26
GUGCUUCCCUCAGCUGAGCCGCCACCUCCAGGAACCCGUUCCUACUUUAGAGCUAGGAUGAGGGCACCUCUCCUCCUCCAUGGAUCACCAAGGGGGCUCUUGCAUUGAGC	0.282
CCUUCUAGUUGCAUUAGUACUGUCUUUCUGUGGAGUUUGGUUUGAAGACUGGCUCAGCAAGUGGAGGUUUCAAUGUAUUUUUCAGUUGGCUCAUCAGCCAGCAUUGGUGA	1.09

Repeated from above (block 1):
Variant	normalised enrichment score
N11F	0.805
D12C	0.43
F8K	0.256
F8E	0.434
D12P	0.704
R4E	0.076
T3W	0.252
